Experimental data collected from several papers.
Numbers after ± are the reported error.

Protein sequences, listed by entry. Tags and fused reporters are not part of them. Lines headed by an entry give the natural chain unless they say otherwise; changes in a name come on top. Residues count along the entry.
UniProt P19784, whole entry: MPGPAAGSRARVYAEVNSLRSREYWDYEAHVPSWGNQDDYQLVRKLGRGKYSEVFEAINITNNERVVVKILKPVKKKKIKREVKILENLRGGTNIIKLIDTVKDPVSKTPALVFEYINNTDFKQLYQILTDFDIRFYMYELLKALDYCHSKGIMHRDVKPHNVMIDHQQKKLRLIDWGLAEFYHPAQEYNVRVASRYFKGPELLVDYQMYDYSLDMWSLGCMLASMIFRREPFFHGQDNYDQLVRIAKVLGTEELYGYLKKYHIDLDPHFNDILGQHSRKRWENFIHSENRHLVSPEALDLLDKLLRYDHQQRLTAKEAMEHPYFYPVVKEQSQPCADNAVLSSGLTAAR
UniProt Q9UM73, whole entry, looked up: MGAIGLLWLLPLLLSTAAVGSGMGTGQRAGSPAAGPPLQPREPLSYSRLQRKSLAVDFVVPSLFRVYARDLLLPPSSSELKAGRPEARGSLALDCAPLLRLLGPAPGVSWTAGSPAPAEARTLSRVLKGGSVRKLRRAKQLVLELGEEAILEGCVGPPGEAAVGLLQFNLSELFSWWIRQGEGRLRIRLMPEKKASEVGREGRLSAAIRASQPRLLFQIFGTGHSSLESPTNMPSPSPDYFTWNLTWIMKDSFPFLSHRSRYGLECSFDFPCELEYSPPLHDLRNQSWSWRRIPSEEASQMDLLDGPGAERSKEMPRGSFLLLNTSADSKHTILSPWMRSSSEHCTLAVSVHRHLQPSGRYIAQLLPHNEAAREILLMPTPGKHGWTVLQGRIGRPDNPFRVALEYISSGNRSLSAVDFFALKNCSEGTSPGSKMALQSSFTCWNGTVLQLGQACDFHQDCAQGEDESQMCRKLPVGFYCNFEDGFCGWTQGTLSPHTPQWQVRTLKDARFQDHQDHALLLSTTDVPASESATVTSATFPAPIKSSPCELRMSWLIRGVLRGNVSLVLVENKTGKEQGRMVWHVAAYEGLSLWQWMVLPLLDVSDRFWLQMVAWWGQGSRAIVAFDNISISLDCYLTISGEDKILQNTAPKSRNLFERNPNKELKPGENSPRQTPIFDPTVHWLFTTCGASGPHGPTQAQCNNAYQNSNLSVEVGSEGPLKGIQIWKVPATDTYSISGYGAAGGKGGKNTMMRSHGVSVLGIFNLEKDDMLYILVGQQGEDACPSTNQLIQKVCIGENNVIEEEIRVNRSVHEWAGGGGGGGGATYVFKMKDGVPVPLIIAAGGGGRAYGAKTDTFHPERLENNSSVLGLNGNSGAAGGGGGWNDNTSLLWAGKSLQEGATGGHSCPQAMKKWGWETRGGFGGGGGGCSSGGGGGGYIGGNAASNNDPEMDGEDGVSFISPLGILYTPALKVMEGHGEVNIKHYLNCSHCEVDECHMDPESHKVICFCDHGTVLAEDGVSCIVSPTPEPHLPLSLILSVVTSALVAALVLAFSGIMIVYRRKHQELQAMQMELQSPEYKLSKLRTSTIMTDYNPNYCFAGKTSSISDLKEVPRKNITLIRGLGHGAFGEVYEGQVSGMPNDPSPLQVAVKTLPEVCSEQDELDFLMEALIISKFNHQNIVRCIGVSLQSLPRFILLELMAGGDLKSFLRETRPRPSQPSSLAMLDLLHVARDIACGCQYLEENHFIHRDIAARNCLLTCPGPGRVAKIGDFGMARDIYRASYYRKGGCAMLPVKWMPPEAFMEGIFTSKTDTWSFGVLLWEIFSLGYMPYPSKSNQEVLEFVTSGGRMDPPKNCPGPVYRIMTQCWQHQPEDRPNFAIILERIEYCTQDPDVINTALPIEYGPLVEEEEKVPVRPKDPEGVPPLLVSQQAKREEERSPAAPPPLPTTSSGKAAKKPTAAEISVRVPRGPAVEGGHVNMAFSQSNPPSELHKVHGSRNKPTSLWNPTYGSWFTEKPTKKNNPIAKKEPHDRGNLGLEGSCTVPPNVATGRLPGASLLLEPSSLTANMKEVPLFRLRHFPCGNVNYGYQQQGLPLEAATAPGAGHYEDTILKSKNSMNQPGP
UniProt P31421, 19-872 limits assumed: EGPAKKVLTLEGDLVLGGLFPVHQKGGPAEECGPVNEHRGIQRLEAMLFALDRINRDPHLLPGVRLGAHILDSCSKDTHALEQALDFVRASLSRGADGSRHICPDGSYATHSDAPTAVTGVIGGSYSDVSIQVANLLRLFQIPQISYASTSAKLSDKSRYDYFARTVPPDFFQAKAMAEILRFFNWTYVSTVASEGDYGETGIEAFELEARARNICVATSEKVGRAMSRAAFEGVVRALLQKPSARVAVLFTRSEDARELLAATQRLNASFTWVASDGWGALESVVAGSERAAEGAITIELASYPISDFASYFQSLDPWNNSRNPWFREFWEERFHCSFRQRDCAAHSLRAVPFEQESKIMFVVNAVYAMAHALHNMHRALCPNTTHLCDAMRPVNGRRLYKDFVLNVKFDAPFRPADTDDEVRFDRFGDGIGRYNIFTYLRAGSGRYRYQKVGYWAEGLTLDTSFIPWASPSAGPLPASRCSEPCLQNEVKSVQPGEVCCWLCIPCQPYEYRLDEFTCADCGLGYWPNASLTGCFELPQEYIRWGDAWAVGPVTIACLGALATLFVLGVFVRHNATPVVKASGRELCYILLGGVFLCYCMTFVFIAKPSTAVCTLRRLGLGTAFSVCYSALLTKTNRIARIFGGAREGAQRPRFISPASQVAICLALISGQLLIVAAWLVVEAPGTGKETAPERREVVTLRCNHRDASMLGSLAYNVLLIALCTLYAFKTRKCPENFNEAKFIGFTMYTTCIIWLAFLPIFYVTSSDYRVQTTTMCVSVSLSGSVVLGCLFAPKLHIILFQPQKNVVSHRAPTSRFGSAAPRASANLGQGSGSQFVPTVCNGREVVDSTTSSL
UniProt P28300, whole entry, looked up: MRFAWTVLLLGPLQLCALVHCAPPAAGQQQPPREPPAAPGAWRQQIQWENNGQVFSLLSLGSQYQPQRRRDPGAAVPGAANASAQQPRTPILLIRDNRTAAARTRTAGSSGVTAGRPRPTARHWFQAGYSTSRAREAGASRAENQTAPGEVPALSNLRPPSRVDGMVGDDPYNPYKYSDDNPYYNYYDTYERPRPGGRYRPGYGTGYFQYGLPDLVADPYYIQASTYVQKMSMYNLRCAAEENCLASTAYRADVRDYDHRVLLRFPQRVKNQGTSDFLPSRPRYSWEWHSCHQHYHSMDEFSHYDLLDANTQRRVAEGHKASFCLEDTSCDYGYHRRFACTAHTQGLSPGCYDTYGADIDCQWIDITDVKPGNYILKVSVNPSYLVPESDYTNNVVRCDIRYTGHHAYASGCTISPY
UniProt O75874, whole entry R132H: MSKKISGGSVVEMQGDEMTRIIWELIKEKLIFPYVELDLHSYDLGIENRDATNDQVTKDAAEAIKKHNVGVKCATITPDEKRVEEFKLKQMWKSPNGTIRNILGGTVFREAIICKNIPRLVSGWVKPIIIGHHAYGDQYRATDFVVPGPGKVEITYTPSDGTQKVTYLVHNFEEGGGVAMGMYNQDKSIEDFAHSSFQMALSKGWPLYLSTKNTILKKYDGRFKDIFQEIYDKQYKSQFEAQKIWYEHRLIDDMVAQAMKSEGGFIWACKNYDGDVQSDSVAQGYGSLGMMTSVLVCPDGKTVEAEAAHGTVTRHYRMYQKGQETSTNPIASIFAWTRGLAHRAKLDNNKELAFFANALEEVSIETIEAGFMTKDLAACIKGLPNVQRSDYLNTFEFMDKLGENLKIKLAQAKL
UniProt P23219, 24-599 limits assumed: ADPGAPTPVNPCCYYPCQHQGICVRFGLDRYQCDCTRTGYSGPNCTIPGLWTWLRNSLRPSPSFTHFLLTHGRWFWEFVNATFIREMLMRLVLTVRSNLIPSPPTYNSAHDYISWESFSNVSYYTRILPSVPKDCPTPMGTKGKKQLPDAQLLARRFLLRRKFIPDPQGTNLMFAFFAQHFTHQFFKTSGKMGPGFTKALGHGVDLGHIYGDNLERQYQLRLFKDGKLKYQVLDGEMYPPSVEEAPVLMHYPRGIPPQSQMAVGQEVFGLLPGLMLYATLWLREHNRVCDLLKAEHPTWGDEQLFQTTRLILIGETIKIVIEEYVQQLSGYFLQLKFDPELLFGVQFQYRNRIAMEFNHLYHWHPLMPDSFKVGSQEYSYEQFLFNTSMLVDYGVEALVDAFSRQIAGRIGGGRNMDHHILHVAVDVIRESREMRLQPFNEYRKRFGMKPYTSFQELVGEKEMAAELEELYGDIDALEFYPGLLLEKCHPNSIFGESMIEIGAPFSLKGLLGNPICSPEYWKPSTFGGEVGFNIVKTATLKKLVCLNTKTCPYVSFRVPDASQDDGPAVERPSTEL
UniProt P14902, whole entry: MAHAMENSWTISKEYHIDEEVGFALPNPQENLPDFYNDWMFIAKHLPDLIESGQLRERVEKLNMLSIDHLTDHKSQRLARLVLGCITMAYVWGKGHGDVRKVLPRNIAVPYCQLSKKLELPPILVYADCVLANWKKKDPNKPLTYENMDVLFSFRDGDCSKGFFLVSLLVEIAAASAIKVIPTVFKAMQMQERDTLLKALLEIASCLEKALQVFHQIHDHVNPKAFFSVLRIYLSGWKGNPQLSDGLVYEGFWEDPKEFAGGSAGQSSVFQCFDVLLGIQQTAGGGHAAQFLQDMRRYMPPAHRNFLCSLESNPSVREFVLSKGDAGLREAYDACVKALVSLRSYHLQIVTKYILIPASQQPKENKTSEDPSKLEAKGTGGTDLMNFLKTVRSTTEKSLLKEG
UniProt Q99685, whole entry: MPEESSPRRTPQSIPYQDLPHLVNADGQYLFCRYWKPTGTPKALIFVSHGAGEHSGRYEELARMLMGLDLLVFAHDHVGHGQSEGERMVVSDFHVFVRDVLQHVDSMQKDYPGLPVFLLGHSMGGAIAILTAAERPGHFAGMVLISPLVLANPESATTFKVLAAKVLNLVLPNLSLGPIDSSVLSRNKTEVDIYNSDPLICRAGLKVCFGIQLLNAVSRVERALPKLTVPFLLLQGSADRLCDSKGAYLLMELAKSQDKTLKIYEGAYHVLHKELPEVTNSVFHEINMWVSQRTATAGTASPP
UniProt P03372, whole entry: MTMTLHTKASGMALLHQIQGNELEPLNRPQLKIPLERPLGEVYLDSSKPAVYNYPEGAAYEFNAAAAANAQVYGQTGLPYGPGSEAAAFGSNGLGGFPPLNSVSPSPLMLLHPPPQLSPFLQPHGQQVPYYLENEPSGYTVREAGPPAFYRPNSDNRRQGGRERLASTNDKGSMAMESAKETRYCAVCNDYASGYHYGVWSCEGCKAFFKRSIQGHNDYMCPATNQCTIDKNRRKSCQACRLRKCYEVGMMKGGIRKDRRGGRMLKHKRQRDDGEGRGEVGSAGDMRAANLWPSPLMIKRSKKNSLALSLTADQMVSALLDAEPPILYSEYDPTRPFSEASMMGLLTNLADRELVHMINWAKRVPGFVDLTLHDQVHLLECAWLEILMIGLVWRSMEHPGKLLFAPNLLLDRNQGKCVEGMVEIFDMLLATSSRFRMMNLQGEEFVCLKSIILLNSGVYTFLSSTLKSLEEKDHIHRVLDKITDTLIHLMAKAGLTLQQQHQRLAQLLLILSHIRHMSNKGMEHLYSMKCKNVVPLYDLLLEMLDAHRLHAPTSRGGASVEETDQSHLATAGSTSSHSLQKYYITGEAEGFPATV
UniProt P37231, whole entry, looked up: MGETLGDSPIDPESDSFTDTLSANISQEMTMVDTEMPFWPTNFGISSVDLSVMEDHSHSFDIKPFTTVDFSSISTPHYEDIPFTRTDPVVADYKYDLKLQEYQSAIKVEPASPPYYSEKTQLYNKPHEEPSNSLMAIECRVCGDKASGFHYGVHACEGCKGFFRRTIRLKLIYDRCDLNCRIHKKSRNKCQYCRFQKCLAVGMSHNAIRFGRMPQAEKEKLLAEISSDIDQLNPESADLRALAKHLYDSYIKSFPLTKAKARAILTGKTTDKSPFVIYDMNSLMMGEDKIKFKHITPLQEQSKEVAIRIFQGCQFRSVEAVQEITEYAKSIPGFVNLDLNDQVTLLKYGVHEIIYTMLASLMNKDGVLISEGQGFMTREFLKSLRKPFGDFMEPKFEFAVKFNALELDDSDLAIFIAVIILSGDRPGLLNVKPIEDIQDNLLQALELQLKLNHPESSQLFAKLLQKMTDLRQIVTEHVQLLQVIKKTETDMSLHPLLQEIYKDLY
UniProt O00748, 27-559 limits assumed: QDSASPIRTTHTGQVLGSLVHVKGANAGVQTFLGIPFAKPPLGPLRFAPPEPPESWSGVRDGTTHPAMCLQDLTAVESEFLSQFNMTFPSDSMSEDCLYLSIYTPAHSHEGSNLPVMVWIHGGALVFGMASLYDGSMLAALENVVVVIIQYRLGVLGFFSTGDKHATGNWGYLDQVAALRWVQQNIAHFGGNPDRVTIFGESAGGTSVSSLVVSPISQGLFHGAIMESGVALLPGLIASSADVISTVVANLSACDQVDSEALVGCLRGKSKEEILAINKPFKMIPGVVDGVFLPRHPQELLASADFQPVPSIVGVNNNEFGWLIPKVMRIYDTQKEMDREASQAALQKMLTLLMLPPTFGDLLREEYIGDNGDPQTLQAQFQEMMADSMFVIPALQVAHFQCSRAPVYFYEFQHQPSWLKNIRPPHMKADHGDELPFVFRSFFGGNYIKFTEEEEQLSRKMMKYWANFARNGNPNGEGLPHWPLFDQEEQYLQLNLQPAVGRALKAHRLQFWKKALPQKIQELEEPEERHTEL

Structure (SMILES) | target | assay | test system | conditions | IC50
Cc1ccc(-c2cc(CF)nn2-c2ccc(S(C)(=O)=O)cc2)cc1 | PTGS1 (Ovis aries, UniProt P05979) | inhibitor |  | concentration not given | > 4000 nM
CC(=O)Nc1cc(Nc2cc(NC3CC3)n3ncc(C#N)c3n2)ccc1N(C)CCN(C)C | CSNK2A2 (Homo sapiens, UniProt P19784) | target engagement, NanoBRET | HEK293 |  | 1.3 nM
Cn1nc(-c2ccccc2)cc1NC(=O)Nc1ccc(OC(F)(F)F)cc1 | ALK (Homo sapiens, UniProt Q9UM73) | ELISA |  |  | 58000 nM
CN1CC[C@H](c2c(O)cc(O)c3c(=O)cc(-c4ccccc4F)oc23)[C@H](O)C1 | EGFR (Homo sapiens, UniProt P00533) |  |  | ATP at Km | > 10000 nM
Clc1ccc(C2(c3ccc(-c4ccnc5ncccc45)cc3)CCNCC2)cc1 | LATS1 (Homo sapiens, UniProt O95835) | kinase activity, inhibitor, radiometric HotSpot |  | added: ATP 10 µM | > 10000 nM
NC(=O)c1cn(-c2ccc(F)cc2)c2ccc(NCCc3cccnc3)cc2c1=O | Grm2 (Rattus norvegicus, UniProt P31421) | calcium mobilization, negative allosteric modulator |  |  | 296 nM
Cc1nc(N)sc1-c1csc(Nc2ccc(N)cc2)n1 | Protein-lysine 6-oxidase (Homo sapiens, UniProt P28300) | LOX activity, inhibitor | MDA-MB-231 |  | > 10000 nM
C[C@H](Nc1nc(N[C@H](C)C2CC2)nc(-c2cccc(C(F)(F)F)n2)n1)C1CC1 | IDH1 (Homo sapiens, UniProt O75874, R132H) | enzyme activity, inhibitor |  | mutant heterodimer reverse reaction | 14 nM
CC(C)[C@H](N)c1nc2cc(-c3ccncn3)sc2c(=O)[nH]1 | CDC7 (Homo sapiens, UniProt O00311) | enzyme activity, inhibitor |  |  | 495 ± 29.7 nM
COc1ccc(-c2nc(S(C)(=O)=O)nn2-c2ccc(OC)cc2)cc1 | PTGS1 (Homo sapiens, UniProt P23219) | thromboxane B2 production, inhibitor, enzyme immunoassay | human whole blood |  | 6 ± 0.2 nM
N#Cc1ccc2[nH]cc(/C=C/c3cccc(F)c3)c2c1 | IDO1 (Homo sapiens, UniProt P14902) | enzyme activity, inhibitor |  |  | 1800 nM
Nc1ccc([N+](=O)[O-])cc1-c1nc2ccccc2[nH]c1=O | Protein diaphanous homolog 1, FH2 domain (Diaph1, Mus musculus, UniProt O08808) | actin assembly, inhibitor, pyrene-actin polymerization |  |  | 2600 nM
O=C(OC(C(F)(F)F)C(F)(F)F)N1CC[C@@H](OC(c2ccc(F)cc2)c2ccc(F)cc2)C1 | MGLL (Homo sapiens, UniProt Q99685) | inhibitor, fluorescence |  | added: AHMMCE substrate | 1340 ± 103 nM
CC(C)CNC(=O)CSc1nc2ccc(NC(=O)CSc3ccc(C(C)(C)C)cc3)cc2s1 | Estrogen receptor (ESR1, Homo sapiens, UniProt P03372) | reporter gene, antagonist | HEC-1 transfected ERα luciferase reporter |  | > 50000 nM
CCC(=O)n1ccc2cc(-c3csc(NC(=O)c4cc(OC)cc(OC)c4)n3)ccc21 | Scavenger receptor class B member 1 (Mus musculus, UniProt Q61009) | DiI-HDL uptake, inhibitor | mouse cells | added: DiI-HDL | 89 nM
Cc1c(Cc2cccc(OC(C)(C)C(=O)O)c2)c2ccc(C(=O)N[C@H](c3cccc(C(C)(C)C)c3)C(F)(F)F)cc2n1CC(C)C | PPARG (Homo sapiens, UniProt P37231) | TR-FRET competitive binding |  |  | 2.93 ± 0.99 nM
CS(=O)(=O)Nc1ccc(OC[C@@H](O)CNCCc2ccc(Cl)c(Cl)c2)cc1 | Glutamate NMDA receptor; Grin1/Grin2b (Grin1/Grin2b, Rattus norvegicus, UniProt P35439+Q00960) |  |  | pH 7.6 | 45 nM
O=C(NCc1ccc(F)cc1)C(=O)[C@H](Cc1ccccc1)NC(=O)[C@H]1CCC(=O)N1Cc1ccc(F)cc1 | CAPN1 (Homo sapiens, UniProt P07384) | enzyme activity, inhibitor |  |  | 140 ± 20 nM
CNC(=O)Oc1ccccc1C=C1Cc2cc(OC)c(OC)cc2C1=O | Cocaine esterase (CES2, Homo sapiens, UniProt O00748) | inhibitor |  | 3 min preincubation, added: fluorescein diacetate | 1180 ± 135 nM
